Assay results from different studies.
Protocols differ between the studies behind these lines. “And” joins repeats or separate records; there may be more than shown. ± marks the error that the study gave.

COCC1CN(C2CCN(c3cc(OC)c(Nc4ncc(Br)c(Nc5ccc6c(c5P(C)(C)=O)OCCO6)n4)cc3C)CC2)C1  partial response (RECIST 1.1; advanced EGFR-mutant NSCLC patients; 10 mg once daily): 0%
CCCCCCCCCCCCCCCC(=O)NCCCC[C@H](NC(=O)[C@H](CCC(=O)O)NC(=O)[C@H](Cc1ccc(O)cc1)NC(=O)[C@H](CCC(=O)O)NC(=O)COCC(=O)NCCCOCCOCCOCCCNC(=O)[C@H](Cc1ccccc1)NC(=O)[C@H](CC(N)=O)NC(=O)[C@H](Cc1c[nH]cn1)NC(=O)[C@@H](NC(=O)[C@H](CC(=O)O)NC(=O)[C@H](CCC(N)=O)NC(=O)[C@H](CC(C)C)NC(=O)[C@H](CCCCN)NC(=O)[C@H](CCCCN)NC(=O)[C@H](CCCNC(=N)N)NC(=O)[C@H](CC(C)C)NC(=O)[C@H](Cc1c[nH]c2ccccc12)NC(=O)[C@H](CCC(=O)O)NC(=O)[C@@H](NC(=O)[C@H](CCCNC(=N)N)NC(=O)[C@H](CCC(=O)O)NC(=O)[C@H](CCSC)NC(=O)[C@H](CO)NC(=O)[C@H](CC(N)=O)NC(=O)[C@H](CC(C)C)NC(=O)[C@H](Cc1c[nH]cn1)NC(=O)[C@H](CCCCN)NC(=O)CNC(=O)[C@H](CC(C)C)NC(=O)[C@H](CC(N)=O)NC(=O)[C@H](Cc1c[nH]cn1)NC(=O)[C@H](CCSC)NC(=O)[C@H](CC(C)C)NC(=O)[C@H](CCC(N)=O)NC(=O)[C@@H](NC(=O)[C@H](CCC(=O)O)NC(=O)[C@H](CO)NC(=O)[C@@H](NC(=O)[C@@H](N)CO)C(C)C)[C@@H](C)CC)C(C)C)C(C)C)C(=O)N[C@@H](CCC(=O)O)C(=O)N[C@@H](Cc1ccc(O)cc1)C(=O)N[C@@H](CCC(=O)O)C(N)=O  trabecular bone volume fraction (micro-CT; humanized PTH1R mouse, distal femur; 50 nmol/kg/day, 3 weeks, daily dosing): 52.1 ± 18.3%
COc1cc(O)ccc1CCC(c1ccc(O)cc1)c1cc2c(c(C)c1O)OC(c1ccc(O)cc1)CC2 (mixture of isomers)  amount (refers to: TXB2; human whole blood; 0.3 µM, together with: Escherichia coli): 26400 ± 14000 pg/mL blood
NC[C@@H](C(=O)Nc1ccc(-c2cn[nH]c2)cc1)c1ccccc1  IOP (tonometry; Macaca cyclopis, ocular normotensive; ocular, 0.1%, 52 h): 15.6 mmHg
CN1CCCNC(=O)c2cccc(c2)C(=O)NCCCN(C)CCCNc2cccc3c2C(=O)c2cccc(c2C3=O)NCCC1  tumour volume (KSN/Slc nude mice, SAS xenograft; dose not given, day 4, 96 h): 159 mm3 and 171 mm3 and 98 mm3 and 154 mm3
CC(C)OC(=O)[C@H](CO)NCc1cc(Cl)c(OCc2cccc(-c3ccccc3)c2Br)cc1OCc1cccnc1  tumour volume (hPD-L1 MC-38 tumour, humanised hPD-1 C57BL/6 mouse; oral, 10 mg/kg × 21, day 1, baseline): 128 ± 11.1 mm³
CC(=O)[O-].O.O.O.O.[Co+2].[O-]c1ccc(Br)cc1C=NCCN1CCOCC1  ferric reducing power (FRAP; 80 µM): 19.5%
Cl.[2H]C([2H])([2H])CC(=O)c1cnc(NC(=O)C2CC2)cc1Nc1cccc(-c2ncn(C([2H])([2H])[2H])n2)c1OC  IC90 (IFNα-induced STAT phosphorylation; human whole blood): 0.144 µg/mL
Cc1[nH]nc2c1N=C(c1ccccc1Cl)c1cnc(N3CCOCC3)cc1N2  tumour growth inhibition (mouse sample BB TNBC PDX; oral, 15 mg/kg, 120 h, 5 days per week): 94%
CCCCCc1ccc(S(=O)(=O)N2CC2C(=O)OC)cc1 (stereo not drawn)  tumour growth inhibition (mouse, Lewis lung carcinoma; intraperitoneal, 15 mg/kg, 16 doses, day 14): 64%
CCCCCCCCCCCCCCCC(=O)OCC(CSC[C@H](N)C(=O)N[C@@H](CO)C(=O)N[C@@H](CCCCN)C(=O)N[C@@H](CCCCN)C(=O)N[C@@H](CCCCN)C(=O)N[C@@H](CCCCN)C(=O)NCCCCCC(=O)N[C@@H](CCCCN)C(=O)N[C@@H](CC(C)C)C(=O)N[C@H](C(=O)N[C@@H](Cc1ccccc1)C(=O)N[C@@H](Cc1ccccc1)C(=O)N[C@@H](Cc1ccc2ccccc2c1)C(=O)O)C(C)C)OC(=O)CCCCCCCCCCCCCCC (stereo partly drawn)  Iba1 level (APP/PS1 transgenic mouse, hippocampus; intrahippocampal, dose not given, unit not given; baseline: injected over adjacent side): 1.02 and 1.12 and 0.956 and 1.01 and 0.514
COc1c(Cl)cccc1Nc1c(-c2ccncc2C#C[C@@]2(C)CCCN2C(=O)/C=C/CN(C)C)[nH]c2c1C(=O)NCC2  tumour growth inhibition (NCI-H2073 EGFR SVD knock-in xenograft, BALB/c nude mice; 25 mg/kg once daily, 21 days): 89.5%
O=S(=O)(NCc1ccncc1)c1ccc(C2CCCCC2)cc1  microglia population (CD11b FACS; CK-p25 mice, female, whole brain; intraperitoneal, 0.3 mg/kg daily for 2 weeks, 336 h): 1.8 ± 0.46%
O=[N+]([O-])[O-].O=c1c(C=NN=C([S-])Nc2ccccc2)coc2ccccc12.[Cu+2].c1cnc2c(c1)ccc1cccnc12  supercoiled DNA form (oxidative DNA cleavage; supercoiled pUC19 DNA; 100 µM, 30 min, together with: ascorbic acid 50 µM, DNA 40 µM): 0%
COC1CN([C@H]2CC[C@H]([C@@]3(C)Oc4c(Cl)cc(C(=O)NCc5c(SC)cc(C)[nH]c5=O)c(C)c4O3)CC2)C1  log2 fold change (RNA-seq, refers to: WDR26; human, whole blood; dose not given, 24 h; baseline: pretreatment baseline): 1.37
CCC(=O)N[C@@H](C)C(=O)OCC(=O)N[C@@H](C)C(=O)O  chain scission rate constant (water; pH 4, 37 °C): 0.0008 h⁻¹
COCCOCCOCCNC(=O)Cc1cc(CC(=O)N[C@H]2C[C@H]3C(=O)Nc4cc(OCCOCCOCCOC)cc(n4)C(=O)N4CCC[C@H]4C(=O)Nc4cc(OCCOCCOCCOC)cc(n4)C(=O)N4CCC[C@H]4C(=O)Nc4cc(OCCOCCOCCOC)cc(n4)C(=O)N3C2)cc(CC(=O)N[C@H]2C[C@H]3C(=O)Nc4cc(OCCOCCOCCOC)cc(n4)C(=O)N4CCC[C@H]4C(=O)Nc4cc(OCCOCCOCCOC)cc(n4)C(=O)N4CCC[C@H]4C(=O)Nc4cc(OCCOCCOCCOC)cc(n4)C(=O)N3C2)c1  ΔH (anion binding, ITC; water; 298 K, together with: sodium iodide): -0.765 ± 0.0956 kcal/mol
N=C(N)NCCC[C@@H]1NC(=O)[C@H](CO)NC(=O)[C@@H](NC(=O)[C@H](CO)NC(=O)[C@H](CO)NC(=O)[C@H](Cc2c[nH]c3ccccc23)NC(=O)CNC(=O)[C@H](CO)NC(=O)[C@@H](N)Cc2c[nH]c3ccccc23)CSSC[C@@H](C(=O)NCC(=O)O)NC(=O)[C@H](CO)NC1=O  VCAM decrease (ELISA; human, older subgroup, plasma; concentration not given, day 26): ~44%
COc1ccc(C(=O)CCc2cc(C(CCc3ccc(O)cc3OC)c3ccc(O)cc3)c(O)cc2OC)cc1 (racemic)  LTB4 isomers level (human blood; 3 µM, together with: A23187): 546 ± 164 pg/mL
C=CC(=O)N1Cc2nc(-c3cc(-c4cc(Cl)cnc4Cl)c(F)cc3F)n(-c3ccncn3)c2C1  growth rate difference (mice, NCI-H2073 vs LXF 2478 xenografts; highest clinically relevant dose, unit not given; baseline: NCI-H2073 minus LXF 2478): 0.0564
CN1CCC[C@]1(C)/C=C/S(=O)(=O)NC(=O)Nc1c2c(cc3c1CCC3)CCC2  IL-18 inhibition (human, whole blood ex vivo; 12.5 mg twice daily, day 19, 108 h, multiple ascending dose, together with: LPS and ATP): -59.3%

Repeated from above:
CC(=O)[O-].O.O.O.O.[Co+2].[O-]c1ccc(Br)cc1C=NCCN1CCOCC1  ferric reducing power (FRAP; 80 µM): 19.5%
CCCCCc1ccc(S(=O)(=O)N2CC2C(=O)OC)cc1 (stereo not drawn)  tumour growth inhibition (mouse, Lewis lung carcinoma; intraperitoneal, 15 mg/kg, 16 doses, day 14): 64%
